Published values pooled from the literature.
Each numbered part is a random draw from the data of one study; scales do not carry over between parts. Positions count from the first letter of the parent shown.

Block 1
Target: CCNE1, cyclin fold, Cln2 fusion (human)
Technique: yeast growth competition, sequencing
Sample: yeast
Setting: weak parent motif
Relative to: not given
Direction: higher = stronger binding
Parent: ORC1 docking peptide (human); PRARKRLELGNLG
Under “normalised enrichment score”, `PRARKRLELGNLR [G13R]` is recorded as 0.408.
Under “normalised enrichment score”, `PRARKRLEGGNLG [L9G]` is recorded as 0.34.
`PRARKRLELGNLP [G13P]` — result for “normalised enrichment score”: -0.145.
`PRARKRLELGNLD [G13D]` — result for “normalised enrichment score”: 1.01.

Block 2
Target: Histone acetyltransferase KAT6A, both winged helices, GST fusion (KAT6A, Homo sapiens, UniProt Q92794, residues 1-181)
Technique: protein binding microarray
Molecule type: double-stranded DNA, one strand shown
Sample: in vitro
Concentration: not given
Setting: 8-mer, flanks averaged, mean of 2 arrays, mostly near background
Relative to: not given
Direction: higher = stronger binding
Residues (chain): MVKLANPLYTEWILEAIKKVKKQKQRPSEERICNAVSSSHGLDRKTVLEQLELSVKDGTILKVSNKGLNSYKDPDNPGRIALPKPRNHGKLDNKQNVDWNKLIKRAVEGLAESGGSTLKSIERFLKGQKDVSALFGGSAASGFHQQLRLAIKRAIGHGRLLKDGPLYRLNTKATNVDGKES
`TATGAGGA` has an E-score of -0.187.
For `ACGCTAGT`, the E-score was 0.0843.
`CACAAGCG` gave an E-score of 0.126.
`GGCCCAGA` gave an E-score of -0.112.
With `ACAAGCAG` the E-score was -0.232.
For `AAGGAAAC`, the E-score was -0.0435.
`GATCCTAA` has an E-score of -0.092.
`ATGCTTCC` gave an E-score of -0.162.

Block 3
Target: Sal-like protein 4, full length isoform A (SALL4, Homo sapiens, UniProt Q9UJQ4, residues 1-1053)
Sequence of UniProt Q9UJQ4 (whole entry, looked up): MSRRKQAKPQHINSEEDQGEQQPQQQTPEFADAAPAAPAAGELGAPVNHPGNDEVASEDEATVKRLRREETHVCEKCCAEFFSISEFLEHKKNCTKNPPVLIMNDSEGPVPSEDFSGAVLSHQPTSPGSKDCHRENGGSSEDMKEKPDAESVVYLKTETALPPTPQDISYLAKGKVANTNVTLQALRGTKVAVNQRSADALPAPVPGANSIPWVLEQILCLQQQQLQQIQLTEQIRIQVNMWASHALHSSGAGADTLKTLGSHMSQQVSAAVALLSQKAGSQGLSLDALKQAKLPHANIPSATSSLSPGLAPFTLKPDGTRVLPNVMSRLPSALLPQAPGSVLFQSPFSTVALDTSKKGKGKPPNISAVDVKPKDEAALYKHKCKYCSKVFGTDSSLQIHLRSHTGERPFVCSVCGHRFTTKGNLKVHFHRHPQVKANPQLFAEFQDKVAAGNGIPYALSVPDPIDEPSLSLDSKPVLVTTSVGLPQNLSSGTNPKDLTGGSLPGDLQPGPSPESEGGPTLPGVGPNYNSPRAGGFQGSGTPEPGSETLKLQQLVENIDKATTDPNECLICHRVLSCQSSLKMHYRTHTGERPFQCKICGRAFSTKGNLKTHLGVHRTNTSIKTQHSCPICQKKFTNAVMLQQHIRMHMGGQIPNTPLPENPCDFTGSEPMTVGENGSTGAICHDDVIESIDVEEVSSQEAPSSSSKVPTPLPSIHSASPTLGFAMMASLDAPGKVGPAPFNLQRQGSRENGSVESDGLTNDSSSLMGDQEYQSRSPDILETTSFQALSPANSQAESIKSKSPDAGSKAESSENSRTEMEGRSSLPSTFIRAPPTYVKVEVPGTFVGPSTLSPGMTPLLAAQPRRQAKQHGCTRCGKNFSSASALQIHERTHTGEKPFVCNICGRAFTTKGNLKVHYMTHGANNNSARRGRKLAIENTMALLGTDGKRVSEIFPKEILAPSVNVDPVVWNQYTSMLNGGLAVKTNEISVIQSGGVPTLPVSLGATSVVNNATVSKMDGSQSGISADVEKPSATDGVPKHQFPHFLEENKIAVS
Technique: universal PBM
Molecule type: double-stranded DNA, one strand shown
Sample: in vitro
Concentration: 600 nM
Setting: 8-mer, flanks averaged, mean of replicates
Direction: higher = stronger binding
The E-score of `CCATCATC` is reported as 0.0861.
`GGATTGAA` gave an E-score of 0.109.
For `CGACTGAA`, the E-score was -0.155.
`AATTATAG` has an E-score of 0.377.
The E-score of `GATGAAAC` is reported as 0.114.
`CTCCGTAA` has an E-score of -0.0455.

Further values, each from its own experiment
For `PhoQ, residues 284 288 289 292 302 303 SLKLQV`, the fold induction was 8.31 (PhoP, residues 12 14 15 18 19 AGCRL (Escherichia coli, UniProt P23836); Sort-seq, item: YFP reporter; E. coli; PhoQ-PhoP variant library, together with: 10 µM Mg2+; relative to: high Mg2+ state, higher = stronger signaling).

For quick reference, copied from above (block 3):
`GGATTGAA` gave an E-score of 0.109.
The E-score of `CCATCATC` is reported as 0.0861.
